# Experimental data from different studies.
# Parts stem from different laboratories: compare values within a part only.

# Sample 1
# Target: Sal-like protein 4, full length isoform A (SALL4, Homo sapiens, UniProt Q9UJQ4, residues 1-1053)
# UniProt Q9UJQ4, sequence (whole entry, looked up): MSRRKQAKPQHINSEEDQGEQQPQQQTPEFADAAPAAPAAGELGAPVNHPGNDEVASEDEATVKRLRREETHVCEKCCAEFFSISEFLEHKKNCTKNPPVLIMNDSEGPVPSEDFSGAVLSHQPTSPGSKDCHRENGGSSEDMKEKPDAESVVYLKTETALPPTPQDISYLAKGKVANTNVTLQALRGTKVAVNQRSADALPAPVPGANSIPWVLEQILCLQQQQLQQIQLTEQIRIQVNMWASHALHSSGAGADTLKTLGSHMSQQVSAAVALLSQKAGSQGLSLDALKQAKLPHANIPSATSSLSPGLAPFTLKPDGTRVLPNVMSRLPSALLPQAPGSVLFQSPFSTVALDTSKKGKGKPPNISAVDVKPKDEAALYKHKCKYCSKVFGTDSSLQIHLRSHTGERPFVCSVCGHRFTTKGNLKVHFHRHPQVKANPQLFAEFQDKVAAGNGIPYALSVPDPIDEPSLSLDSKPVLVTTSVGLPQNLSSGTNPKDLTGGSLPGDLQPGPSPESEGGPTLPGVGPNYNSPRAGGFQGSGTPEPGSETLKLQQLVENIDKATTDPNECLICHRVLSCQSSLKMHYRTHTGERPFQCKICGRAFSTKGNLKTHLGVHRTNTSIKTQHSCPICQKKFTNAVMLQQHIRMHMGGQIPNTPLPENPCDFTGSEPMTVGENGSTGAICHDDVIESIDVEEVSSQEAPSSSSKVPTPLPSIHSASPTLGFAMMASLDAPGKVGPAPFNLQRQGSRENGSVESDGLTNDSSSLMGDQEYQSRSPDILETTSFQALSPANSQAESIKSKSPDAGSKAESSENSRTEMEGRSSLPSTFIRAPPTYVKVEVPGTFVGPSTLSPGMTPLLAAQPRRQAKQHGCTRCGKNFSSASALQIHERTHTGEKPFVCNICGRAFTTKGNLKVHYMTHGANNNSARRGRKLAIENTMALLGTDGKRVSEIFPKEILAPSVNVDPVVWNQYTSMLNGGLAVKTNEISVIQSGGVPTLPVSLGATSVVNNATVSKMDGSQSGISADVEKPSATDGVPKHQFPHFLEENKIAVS
# Technique: universal PBM
# Molecule type: double-stranded DNA, one strand shown
# Medium: in vitro
# Concentration: 600 nM
# Setting: 8-mer, flanks averaged, mean of replicates
# Reading: higher = stronger binding
Oligonucleotide,E-score
GTCGATAA,0.111
CTTCACAC,0.113
AGCTCCGC,-0.27
CCGCTACA,-0.0833
GATAAGCA,0.141
GAATCTTA,0.17
GCAACGGA,-0.13
ACCCAGTC,-0.192
ACTGACCC,-0.199
AACAATGC,0.14
ACCGGGTC,-0.346
AGTAGAAT,0.226
CACACTAC,0.0301
TCCCATAA,0.24
AAGTCAGC,-0.0492

# Sample 2
# Target: UBE2B UBC core domain (UniProt P63146)
# UniProt P63146, sequence (whole entry, looked up): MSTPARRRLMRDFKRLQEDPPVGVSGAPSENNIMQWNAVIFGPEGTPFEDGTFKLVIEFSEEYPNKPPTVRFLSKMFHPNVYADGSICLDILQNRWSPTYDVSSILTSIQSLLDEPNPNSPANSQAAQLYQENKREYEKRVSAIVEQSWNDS
# Technique: yeast two-hybrid
# Medium: yeast
# Setting: mostly zero background
# Baseline: not given
# Reading: higher = stronger interaction
# B1: TRIM35 RING domain (UniProt Q9UPQ4); chain PSRSFKEELLCAVCYDPFRDAVTLRCGHNFCRGCVSRCWEVQVSPTCPVCKDRASPADLRT
# B2: NSMCE1 RING domain (UniProt Q8WV22); chain RETYPDAVKICNICHSLLIQGQSCETCGIRMHLPCVAKYFQSNAEPRCPHCNDYWPHEIPKV
# B3: PEX2 RING domain (UniProt P28328); chain DNTLATSGKECALCGEWPTMPHTIGCEHIFCYFCAKSSFLFDVYFTCPKCGTEVHSLQPLK
# B4: MSL2 RING domain (UniProt Q9HCI7); chain LLPYFRQSLSCCVCGHLLQDPIAPTNSTCQHYVCKTCKGKKMMMKPSCSWCKDYEQFEENKQ
Sequence,lacZ reporter activity
LKQVSIRENCCSLCCDEVADTQLKPCGHSDLCMDCALQLETCPLCRKEIVSRIRQI (RSPRY1 RING domain (UniProt Q96DX4)),0
QLQDEEDDSLCRICMDAVIDCVLLECGHMVTCTKCGKRMSECPICRQYVVRAVHVF (RNF34 RING domain (UniProt Q969K3)),0
B1 (TRIM35 RING domain),0
B2 (NSMCE1 RING domain),0
B3 (PEX2 RING domain),0
FLKKLEQSFMCVCCQELVYQPVTTECFHNVCKDCLQRSFKAQVFSCPACRHDLGQNYIMI (UHRF2 RING domain (UniProt Q96PU4)),0
KIKDLNEHIVCCLCAGYFVDATTITECLHTFCKSCIVKYLQTSKYCPMCNIKIHETQPLL (PCGF1 RING domain (UniProt Q9BSM1)),0
B4 (MSL2 RING domain),0

# Sample 3
# Target: Phosphate system positive regulatory protein PHO4, full length, GST-tagged (PHO4, Saccharomyces cerevisiae, UniProt P07270, residues 1-312)
# Technique: competition protein-binding microarray
# Molecule type: double-stranded DNA, one strand shown
# Medium: in vitro
# Concentration: 2 µM
# Setting: whole 60-bp probe, lowest competitor level
# Together with: Cbf1 competitor, 0.05 µM
# Reading: higher = stronger binding
# All sequences stand within: … GTCTTGATTCGCTTGACGCTGCTG
# Residues (chain): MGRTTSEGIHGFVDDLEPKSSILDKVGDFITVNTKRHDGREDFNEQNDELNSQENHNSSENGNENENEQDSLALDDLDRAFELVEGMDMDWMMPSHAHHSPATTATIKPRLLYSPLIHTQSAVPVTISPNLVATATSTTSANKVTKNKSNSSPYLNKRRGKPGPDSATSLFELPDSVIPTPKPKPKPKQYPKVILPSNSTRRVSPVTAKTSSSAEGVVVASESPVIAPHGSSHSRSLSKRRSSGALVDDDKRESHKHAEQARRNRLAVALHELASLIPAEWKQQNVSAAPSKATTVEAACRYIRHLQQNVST
Oligonucleotide,fluorescence intensity [a.u.]
TGCATATTCGTCAGTGACGTGCAAAATTCTTTTGAA,4430
TATAGAAAATTTCTGAGTGAAGGGTGGTCTATACAC,5580
CTGATTTGCCTGTACCACATGTCATAAAAACTGCGG,10300
TCAAGAAAAATTCATCACCTGACTGCAAAATAAAGC,3770
GCTAGTAGCTCTACCCACGGGACTACTCACAGTTCT,7300
TCCGCGCCGTATGTGTGTGTGACAGTGGAGTTTGCA,6450
CGTCAATTAAAATGTTACGTGAGATGGGTTAAATAC,4710
CTGAAAGAGAAATTGTCCGTGACGAAAAGGAAAAAG,3850
GCTGTCTCCCTGCGACATGTGTACAGGTGCCATCAT,8870
CGACCCAGTTGTACGAGGCAACAGGCCCGACTTCAC,4090

# Sample 4
# Target: Histone acetyltransferase KAT6A, winged helix 2, GST fusion (KAT6A, Homo sapiens, UniProt Q92794, residues 85-181)
# Technique: protein binding microarray
# Molecule type: double-stranded DNA, one strand shown
# Medium: in vitro
# Concentration: not given
# Setting: 8-mer, flanks averaged, mean of 2 arrays, mostly near background
# Baseline: not given
# Reading: higher = stronger binding
# Residues (chain): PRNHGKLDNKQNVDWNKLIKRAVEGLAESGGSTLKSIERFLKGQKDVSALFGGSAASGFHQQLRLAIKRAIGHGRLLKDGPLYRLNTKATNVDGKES
Oligonucleotide,E-score
ACGTCGCC,-0.0649
ATTTCCGA,0.0635
AGAGGTCA,-0.109
GAGATCCC,0.195
ATCCAACC,0.0385
ACTTTTCC,0.0448
ATTATTTG,0.0753
AATACAGT,-0.202
TTATTCAA,0.244
GGGAACAC,0.0837
CAGACCTC,0.0422
ACACCGCC,0.159
GGTCCTCA,0.0445
ATAAGACG,-0.279
GCTGGCGA,-0.00041
CATGACTC,-0.147
